Results from different studies.
Every numbered part comes from another study and shows a few of its results, in no order.

Block 1
Target: Histone acetyltransferase KAT6A, winged helix 2, GST fusion (KAT6A, Homo sapiens, UniProt Q92794, residues 85-181)
Technique: protein binding microarray
Form: double-stranded DNA, one strand shown
Medium: in vitro
Concentration: not given
Notes: 8-mer, flanks averaged, mean of 2 arrays, mostly near background
Reference: not given
Reading: higher = stronger binding
Residues (chain): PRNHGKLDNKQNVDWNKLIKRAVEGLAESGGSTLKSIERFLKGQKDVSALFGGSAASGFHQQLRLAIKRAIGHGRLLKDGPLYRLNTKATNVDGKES
With `ATATGCAA` the E-score was -0.0215.
With `AGAGGCGC` the E-score was -0.0634.
`ACGGGCAG` gave an E-score of 0.069.
`GTAGGCAC` has an E-score of -0.0514.

Block 2
Target: Phosphate system positive regulatory protein PHO4, full length, GST-tagged (PHO4, Saccharomyces cerevisiae, UniProt P07270, residues 1-312)
Technique: competition protein-binding microarray
Form: double-stranded DNA, one strand shown
Medium: in vitro
Concentration: 2 µM
Notes: whole 60-bp probe, lowest competitor level
Added: Cbf1 competitor, 0.05 µM
Reading: higher = stronger binding
Residues (chain): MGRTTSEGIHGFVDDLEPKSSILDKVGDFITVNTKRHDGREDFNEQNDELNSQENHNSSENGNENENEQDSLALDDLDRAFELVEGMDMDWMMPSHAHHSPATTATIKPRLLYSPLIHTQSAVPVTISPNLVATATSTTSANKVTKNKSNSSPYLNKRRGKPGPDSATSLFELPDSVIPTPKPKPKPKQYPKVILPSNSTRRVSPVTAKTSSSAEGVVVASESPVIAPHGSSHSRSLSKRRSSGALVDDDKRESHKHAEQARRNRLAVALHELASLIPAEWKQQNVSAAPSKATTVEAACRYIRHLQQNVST
`TATGCGCGGATGTGGCACATGCTGTTGAGATCTCAAGTCTTGATTCGCTTGACGCTGCTG` has a fluorescence intensity of 11600 a.u.
`CATACCCAACCTTGTCCTGTGGGTGAAGATATTTGTGTCTTGATTCGCTTGACGCTGCTG` gave a fluorescence intensity of 4560 a.u.
The fluorescence intensity of `TCATAGTTGACTGCCCATGTGGCTAATCTCAGTCTCGTCTTGATTCGCTTGACGCTGCTG` is reported as 10900 a.u.
`TTAGTAATCTAGAATCACATGGTACCTCTTTCTTCGGTCTTGATTCGCTTGACGCTGCTG` gave a fluorescence intensity of 8660 a.u.

Block 3
Target: Sal-like protein 4, full length isoform B (SALL4, Homo sapiens, UniProt Q9UJQ4-2, residues 1-616)
Technique: universal PBM
Form: double-stranded DNA, one strand shown
Medium: in vitro
Concentration: not given
Notes: 8-mer, flanks averaged, mean of replicates
Reading: higher = stronger binding
Residues (chain): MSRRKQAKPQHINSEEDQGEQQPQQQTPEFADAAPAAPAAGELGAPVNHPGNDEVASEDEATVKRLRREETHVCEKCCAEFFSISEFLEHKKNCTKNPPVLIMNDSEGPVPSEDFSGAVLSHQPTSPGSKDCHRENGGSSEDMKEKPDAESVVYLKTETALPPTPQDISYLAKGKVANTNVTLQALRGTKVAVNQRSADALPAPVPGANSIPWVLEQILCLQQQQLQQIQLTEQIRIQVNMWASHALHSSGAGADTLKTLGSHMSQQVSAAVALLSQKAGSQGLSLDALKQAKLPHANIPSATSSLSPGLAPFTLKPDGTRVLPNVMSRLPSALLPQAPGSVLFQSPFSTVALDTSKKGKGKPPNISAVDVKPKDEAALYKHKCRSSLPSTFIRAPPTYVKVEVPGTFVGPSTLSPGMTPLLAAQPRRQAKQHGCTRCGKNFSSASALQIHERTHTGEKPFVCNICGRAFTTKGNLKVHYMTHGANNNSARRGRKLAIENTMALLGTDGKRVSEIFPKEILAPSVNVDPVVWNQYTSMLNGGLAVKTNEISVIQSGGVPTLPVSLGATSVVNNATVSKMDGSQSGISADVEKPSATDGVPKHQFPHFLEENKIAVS
For `CGCCAGCC`, the E-score was -0.216.
`GGGGCCCA` has an E-score of -0.362.
For `CTGCGCGA`, the E-score was -0.15.

Single results of other studies
The fold induction of `PhoQ, residues 284 288 289 292 302 303 SLCLSL` is reported as 1.02 (PhoP, residues 12 14 15 18 19 VHSCL (Escherichia coli, UniProt P23836); Sort-seq, measured: YFP reporter; E. coli; PhoQ-PhoP variant library, added: 10 µM Mg2+; reference: high Mg2+ state, higher = stronger signaling).

Repeated from above (block 2):
`CATACCCAACCTTGTCCTGTGGGTGAAGATATTTGTGTCTTGATTCGCTTGACGCTGCTG` gave a fluorescence intensity of 4560 a.u.
